Results from different studies.
Every numbered part comes from another study and shows a few of its results, in no order. Substitutions count along the parent as printed.

Study 1 — target: CCNA2, cyclin fold, Cln2 fusion (human); technique: yeast growth competition, sequencing; sample: yeast; notes: strong parent motif; reference: not given; direction: higher = stronger binding
Parent: PKN2 docking peptide (human); VSAVRKLDFSDTM; partner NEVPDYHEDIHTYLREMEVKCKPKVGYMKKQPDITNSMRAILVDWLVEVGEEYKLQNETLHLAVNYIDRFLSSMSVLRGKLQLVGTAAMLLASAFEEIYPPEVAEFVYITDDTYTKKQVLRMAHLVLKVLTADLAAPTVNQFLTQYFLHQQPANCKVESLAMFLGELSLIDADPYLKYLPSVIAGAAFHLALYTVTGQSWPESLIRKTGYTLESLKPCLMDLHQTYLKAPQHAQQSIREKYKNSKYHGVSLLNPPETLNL
Change | normalised enrichment score
VSAVRKLDTSDTM [F9T] | 0.216
VSWVRKLDFSDTM [A3W] | 3.95
VSAVRKLDFSDFM [T12F] | 5.25
VSAVRKLDFSDKM [T12K] | 5.86
VSAARKLDFSDTM [V4A] | 5.46
VSAVRKWDFSDTM [L7W] | -0.163
VSAVRKLDFSRTM [D11R] | 5.08
VSRVRKLDFSDTM [A3R] | 3.01
VRAVRKLDFSDTM [S2R] | 5.88
VSEVRKLDFSDTM [A3E] | -0.14
VQAVRKLDFSDTM [S2Q] | 5.23
VSAVHKLDFSDTM [R5H] | 0.823
VSPVRKLDFSDTM [A3P] | 2.79
VSAWRKLDFSDTM [V4W] | 4.99

Study 2 — technique: DHFR PCA, deep sequencing; sample: yeast; with: (+)-ABA 200 µM; reference: wild-type fitted maximum; direction: higher = stronger binding
Target: ABI1, truncated, D143A, DHFR fusion (Arabidopsis thaliana)
Notes: methotrexate growth selection, single substitutions
Parent: PYL1, truncated, DHFR fusion (Arabidopsis thaliana); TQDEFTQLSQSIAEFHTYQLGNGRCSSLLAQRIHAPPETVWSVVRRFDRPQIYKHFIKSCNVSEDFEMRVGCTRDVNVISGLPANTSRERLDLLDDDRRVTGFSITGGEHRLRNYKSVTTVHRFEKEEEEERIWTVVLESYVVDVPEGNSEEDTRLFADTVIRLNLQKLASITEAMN
Change | relative binding score
L112A | -14%
E125M | 90.3%
A170N | 60.8%
Y18E | 81.8%
W41P | 1.57%
N165Y | 21.7%
F157H | 5.47%
Q10Y | 87.3%
E131Q | 109%
G107W | 39.9%
D48N | 87.2%
T17Q | 94.2%
S80T | 98.2%
V118D | 1.43%
G107Y | 52.5%
D75T | 113%

Study 3 — target: CREB3, bZIP domain (human); technique: DHFR protein complementation; sample: yeast; reference: wild-type JUN-FOS pair; direction: higher = stronger binding
Notes: single substitutions, most at no-binding floor
Parent: JUN, bZIP domain (human); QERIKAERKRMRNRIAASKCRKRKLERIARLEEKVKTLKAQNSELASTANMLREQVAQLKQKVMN; partner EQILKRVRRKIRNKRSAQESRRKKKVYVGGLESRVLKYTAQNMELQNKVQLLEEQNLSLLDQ
Change | binding fitness [natural log]
A29F | -1.45
S43M | -1.4
M51D | -1.53
N42W | -1.56
M51W | -1.39
Q55A | -1.4
E54V | -1.54
R30K | -1.36
T37P | -1.53
K39C | -1.51
K34F | -1.59
K39I | -1.57
K39S | -1.42
A29V | -1.46

Study 4 — target: UBE2B UBC core domain (UniProt P63146); technique: yeast two-hybrid; sample: yeast; notes: mostly zero background; reference: not given; direction: higher = stronger interaction
UniProt P63146, sequence (whole entry, looked up): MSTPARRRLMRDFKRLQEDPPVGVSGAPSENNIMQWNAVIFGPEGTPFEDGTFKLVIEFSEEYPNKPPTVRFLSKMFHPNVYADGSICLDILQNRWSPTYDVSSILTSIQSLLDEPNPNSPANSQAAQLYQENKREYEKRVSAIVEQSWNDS
B1: RNF17 RING domain (UniProt Q9BXT8); chain SQPWGAAEIQCTRCGRRVSRSSGHHCELQCGHAFCELCLLMTEECTTIICPDCEVATAVNTRQR
B2: RFPL3 RING domain (UniProt O75679); chain MAALFQEASSCPVCSDYLEKPMSLECGCTVCLKCINSLQKEPHGEDLLCCCCSMVSQRNKIRP
B3: RNF7 RING domain (UniProt Q9UBF6); chain AICRVQVMDACLRCQAENKQEDCVVVWGECNHSFHNCCMSLWVKQNNRCPLCQQDWVVQRIGK
B4: TRIM2 RING domain (UniProt Q9C040); chain VRQIDKQFLICSICLERYKNPKVLPCLHTFCERCLQNYIPAHSLTLSCPVCRQTSILPEKGV
B5: CBLL1 RING domain (UniProt Q75N03); chain GEKDDTPVHFCDKCGLPIKIYGRMIPCKHVFCYDCAILHEKKGDKMCPGCSDPVQRIEQCT
B6: TRIM47 RING domain (UniProt Q96LD4); chain MDGSGPFSCPICLEPLREPVTLPCGHNFCLACLGALWPHRGASGAGGPGGAARCPLCQEPFPDGLQLR
B7: TRIM34 RING domain (UniProt Q9BYJ4); chain ILLNVQEEVTCPICLELLTEPLSLDCGHSLCRACITVSNKEAVTSMGGKSSCPVCGISYSFEHLQA
B8: TRIM28 RING domain (UniProt Q13263); chain GAEALELLEHCGVCRERLRPEREPRLLPCLHSACSACLGPAAPAAANSSGDGGAAGDGTVVDCPVCKQQCFSKDIVE
B9: TRIM68 RING domain (UniProt Q6AZZ1); chain LVEAIVEEVACPICMTFLREPMSIDCGHSFCHSCLSGLWEIPGESQNWGYTCPLCRAPVQPRNLRP
B10: TRIM74 RING domain (UniProt Q86UV6); chain SLLELEDWLQCPICLEVFKESLMLQCGHSYCKGCLVSLSYHLDTKVRCPMCWQVVDGSSSLP
B11: RNF10 RING domain (UniProt Q8N5U6); chain VRICSHEVPSCPICLYPPTAAKITRCGHIFCWACILHYLSLSEKTWSKCPICYSSVHKKDLKS
B12: MARCHF2 RING domain (UniProt Q9P0N8); chain RLLSTVIRALDTPSDGPFCRICHEGANGECLLSPCGCTGTLGAVHKSCLEKWLSSSNTSYCELCHTEFAVEKRPRPLTEWL
B13: PJA2 RING domain (UniProt O43164); chain DHTAIGQEQCCPICCSEYIKDDIATELPCHHFFHKPCVSIWLQKSGTCPVCRRHFPPAVIEA
B14: ARIH1 RING domain (UniProt Q9Y4X5); chain NTRSSAQDMPCQICYLNYPNSYFTGLECGHKFCMQCWSEYLTTKIMEEGMGQTISCPAHGCDILVDDNTVM
Molecule | lacZ reporter activity
B1 (RNF17 RING domain) | 0
B2 (RFPL3 RING domain) | 0
PLRRLQEEKLCKICMDRHIAVVFIPCGHLVTCKQCAEAVDRCPMCSAVIDFKQRVF (BIRC8 RING domain (UniProt Q96P09)) | 0
B3 (RNF7 RING domain) | 0
B4 (TRIM2 RING domain) | 0
B5 (CBLL1 RING domain) | 0
FLSKVEETFQCICCQELVFRPITTVCQHNVCKDCLDRSFRAQVFSCPACRYDLGRSYAMQ (UHRF1 RING domain (UniProt Q96T88)) | 0
B6 (TRIM47 RING domain) | 0
B7 (TRIM34 RING domain) | 0
B8 (TRIM28 RING domain) | 0
MEEMEEELKCPVCGSFYREPIILPCSHNLCQACARNILVQTPESESPQSHRAAGSGVSDY (TRIM9 RING domain (UniProt Q9C026)) | 0
B9 (TRIM68 RING domain) | 0
B10 (TRIM74 RING domain) | 0
EIKDYKARLTCPCCNMRKKDAVLTKCFHVFCFECVKTRYDTRQRKCPKCNAAFGANDFHR (RNF20 RING domain (UniProt Q5VTR2)) | 0
B11 (RNF10 RING domain) | 0
B12 (MARCHF2 RING domain) | 0
B13 (PJA2 RING domain) | 0
B14 (ARIH1 RING domain) | 0

Study 5 — technique: RNA Bind-n-Seq; molecule type: RNA; sample: in vitro; tested at: 1 µM; notes: whole 134-nt RNA, ends assumed; with: 150 mM KCl; reference: input library; direction: higher = stronger binding
Target: Ras GTPase-activating protein-binding protein 1, RRM domain (G3BP1, Homo sapiens, UniProt Q13283)
UniProt Q13283, sequence (whole entry, looked up): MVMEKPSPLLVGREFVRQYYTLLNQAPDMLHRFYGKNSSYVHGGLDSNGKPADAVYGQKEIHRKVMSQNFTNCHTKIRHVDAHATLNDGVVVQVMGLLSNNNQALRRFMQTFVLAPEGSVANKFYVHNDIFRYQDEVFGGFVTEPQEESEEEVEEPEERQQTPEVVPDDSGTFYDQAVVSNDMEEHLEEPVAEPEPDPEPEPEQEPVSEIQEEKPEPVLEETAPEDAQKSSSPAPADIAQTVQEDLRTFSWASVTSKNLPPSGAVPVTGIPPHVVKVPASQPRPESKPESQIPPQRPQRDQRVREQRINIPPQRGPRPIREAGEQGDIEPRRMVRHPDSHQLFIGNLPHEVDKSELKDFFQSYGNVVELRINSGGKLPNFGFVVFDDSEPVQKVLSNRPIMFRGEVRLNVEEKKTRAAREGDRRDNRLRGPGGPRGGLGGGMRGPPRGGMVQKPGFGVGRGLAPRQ
Oligonucleotide | log2 enrichment
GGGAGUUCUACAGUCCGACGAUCACCAUGCAAAUGGGCAUCUUUGGGAAGUGGGGCAAGGGGGGGAUAGGGAGGGGGGUAACACUUUGGGAACAGGUGGUCCCAGGUCGUUUCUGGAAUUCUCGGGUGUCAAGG | -0.356
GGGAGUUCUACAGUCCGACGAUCUGGCCCUGGUGGCAUGCGGGGAGGAAGAGGUGGCCUCAUGGAUCGUGGUGAUCCCGGUGGAAUGUUCAGAGGUGGCCGUGGUGGAGACAGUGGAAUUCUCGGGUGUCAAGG | 0.314
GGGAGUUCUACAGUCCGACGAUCGUCCUGUGCUACACAUCGUAUGUACCGAAUCGGCCCCCGGGGCCCCCGGGCCCCCGGGAAAGUAUUAUGUUACGCCGUUCGGAUCUGCACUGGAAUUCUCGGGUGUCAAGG | -0.428
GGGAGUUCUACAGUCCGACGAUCAGUCCUGUGCUACACAUCGUAUGUACCGAAUCGGGAGGGUUUUUGGGUUUUUUUGGGAAAGUAUUAUGUUACGCCGUUCGGAUCUGCACUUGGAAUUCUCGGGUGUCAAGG | 0.298
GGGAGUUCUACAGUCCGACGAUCUGGCCCUCGUGGCAUGCGGGGAGGAAGAGGUGGCCUCAUGGAUCGUGGUGGUCCCGGUGGAAUGUUCAGAGGUGGCCGUGGUGGAGACAGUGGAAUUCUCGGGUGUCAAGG | 0.89
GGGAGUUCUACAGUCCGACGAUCCACAGACAACACGCACCCACACAGACACAGAGGGAAGGGGUUGGGAUGGGGACAGGGUGCACAGCAGGGCGGGGUAGGACCCCAGUCCCUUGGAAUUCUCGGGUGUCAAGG | -0.378
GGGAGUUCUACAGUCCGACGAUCUGGGAGGUGGAUUUUGUUUAUUUUUUUAGCUCAUUUCCAGGGGUGGGAAUUUCUUUUUAAUAUGUGUCAUGAAUAAAGUUGUUUUUGAAAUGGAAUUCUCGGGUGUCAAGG | 2.22
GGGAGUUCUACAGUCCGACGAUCCAAGUCCUGUGCUACACAUCGUAUGUACCGAAUCGGAAAAGGGAAAAGGGAAAAGGAAAGUAUUAUGUUACGCCGUUCGGAUCUGCACUUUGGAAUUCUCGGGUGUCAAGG | -0.147
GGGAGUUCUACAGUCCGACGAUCAAGUCCUGUGCUACACAUCGUAUGUACCGAAUCGGGAAAGGGAAAAAAAGGGUGGGAAAGUAUUAUGUUACGCCGUUCGGAUCUGCACUUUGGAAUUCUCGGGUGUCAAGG | 0.682
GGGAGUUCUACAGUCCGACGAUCGCAGGAAGUAAAAACAAAUGGAAAUGCUUCGGAUAGUGGCAGGGGUGGGGGUUGCUAAGGAAAGGGUGGGAUGGGAGUGGGUAAAGCGUUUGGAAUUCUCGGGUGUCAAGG | 1.27
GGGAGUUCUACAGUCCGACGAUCAAGUCCUGUGCUACACAUCGUAUGUACCGAAUCGGGUUUUUUUGGGAGGGAAAGGGAAAGUAUUAUGUUACGCCGUUCGGAUCUGCACUUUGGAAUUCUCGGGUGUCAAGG | 0.456
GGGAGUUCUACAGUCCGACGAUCCACAGACCACACGCACCCACACAGACACAGAGGGAAGGGGUUGGGAUGGGGACAGGGUGCACAGCAGGGCGGGGUAGGACCCCAGCCCCUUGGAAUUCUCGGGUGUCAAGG | -0.234
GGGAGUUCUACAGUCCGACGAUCUCAAGUCCUGUGCUACACAUCGUAUGUACCGAAUCGGGAAAGGGUGGGUUUGGGAAAGUAUUAUGUUACGCCGUUCGGAUCUGCACUUCCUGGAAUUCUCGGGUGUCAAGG | 0.839
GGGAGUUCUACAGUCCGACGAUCCACAGGCAACACGCACCCACACAGACACAGAGGGAAGGGGUUGGGAUGGGGACAGGGUGCACAGCAGGGCGGGGUAGGACCCCAGCCCCUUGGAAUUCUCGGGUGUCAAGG | -0.116

Study 6 — technique: protein binding microarray; molecule type: double-stranded DNA, one strand shown; sample: in vitro; tested at: not given; reference: not given; direction: higher = stronger binding
Target: Histone acetyltransferase KAT6A, both winged helices, GST fusion (KAT6A, Homo sapiens, UniProt Q92794, residues 1-181)
Notes: 8-mer, flanks averaged, mean of 2 arrays, mostly near background
Construct (chain): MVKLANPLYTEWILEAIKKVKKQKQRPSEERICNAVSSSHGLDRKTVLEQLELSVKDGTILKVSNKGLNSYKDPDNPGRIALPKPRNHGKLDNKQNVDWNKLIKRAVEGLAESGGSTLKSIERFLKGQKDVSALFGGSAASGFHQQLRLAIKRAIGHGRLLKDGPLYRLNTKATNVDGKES
Oligonucleotide | E-score
CTATGCAC | -0.139
AGCTAGGG | -0.157
AAGCCGAC | 0.191
GCCATTCC | 0.0127
TATCCAGA | -0.0451
ACGCAGCG | 0.203
CCGGCAGA | 0.122
GCGCACGC | 0.342
ACAGGACT | -0.18
ATTAATCA | -0.0405
AGTTAAGA | -0.152
AAGCTGCT | 0.0126
CGGACCAC | 0.083
ATACCAGC | -0.172
ACCGTATG | 0.154
ATCCAGAG | -0.135
AATCCGTA | 0.115
CTCGCACC | -0.0489
